{"data": "Measured values collected from several papers", "note": "Compare with care: the assays were run in different laboratories. Values joined by “and” are separate records of one study, mostly repeats; a detail may differ."}
{"Compound": "CCN1[C@@H](C(=O)NC23CCC(C(=O)O)(CC2)CC3)[C@H](c2cccc(Cl)c2F)[C@]2(C(=O)Nc3cc(Cl)ccc32)C12CCCCC2", "system": "patients with advanced solid tumours", "setting": "oral, 100 mg", "measurement": "nausea/vomiting incidence", "result": "45.5%"}
{"Compound": "COc1cccc(Oc2ccccc2NC(=O)CNC(=O)c2cccc3ccccc23)c1", "system": "esterase-deficient SCID mice, male, blood", "setting": "oral, 40 mg/kg/day, 14 days, toxicity study", "measurement": "hematocrit", "result": "39% and 42.4% and 41%"}
{"Compound": "CCc1ccc(CC/C=C/c2ccc3c(c2)C(=O)CC3)cc1", "system": "Sprague-Dawley rat, male", "setting": "oral, 450 mg/kg/day, 14 days", "measurement": "LDH serum activity", "result": "406 U/L"}
{"Compound": "CN1CCN(c2cccc3c2CCN(C(=O)/C=C/c2c(-n4cnnn4)ccc(Cl)c2F)[C@@H]3C(=O)Nc2ccc(C(=O)O)cc2)C(=O)C1", "system": "healthy human subjects", "setting": "intravenous infusion, 9 mg/h, 5 days", "measurement": "deaths", "result": "0%"}
{"Compound": "COc1ncccc1-c1cnn2ccc(N3CCN(C(=O)OC(C)C)CC3)nc12", "system": "mouse, open field test, plasma", "setting": "oral, 10 mg/kg, 60 min", "measurement": "drug concentration", "result": "3.5 µM"}
{"Compound": "O=C(NCCCNc1nc(Nc2cccc(NC(=O)N3CCCC3)c2)ncc1I)c1cccs1", "system": "simulated tear fluid", "setting": "24 h, 37 °C", "measurement": "equilibrium solubility", "result": "< 1 µg/mL"}
{"Compound": "CO[C@H]1C[C@@H]2CC[C@@H](C)[C@@](O)(O2)C(=O)C(=O)N2CCCC[C@H]2C(=O)O[C@H]([C@H](C)C[C@@H]2CC[C@@H](OC(=O)NCCOCCOCCOCCOCCOCCOCCOCCOCCC(=O)N3CCc4cc(Cn5nc(-c6ccc7oc(N)nc7c6)c6c(N)ncnc65)ccc4C3)[C@H](OC)C2)C[C@@H](O)[C@H](C)/C=C(\\C)[C@@H](O)[C@@H](OC)C(=O)[C@H](C)C[C@H](C)/C=C/C=C/C=C/1C", "system": "patients with advanced solid tumours", "setting": "intravenous, 16 mg weekly, any grade", "measurement": "maculopapular rash incidence", "result": "25%"}
{"Compound": "CC(=O)c1c(C)c2cnc(Nc3ccc(C4CCN(CCS(C)(=O)=O)CC4)cn3)nc2n(C2CCCC2)c1=O", "system": "beagle dog, male, fasted, blood", "setting": "oral gavage, 15 mg/kg, acidified methylcellulose vehicle", "measurement": "AUC(0-t)", "result": "1120 ng·h/mL"}
{"Compound": "C=CC(=O)Nc1cc(Nc2nccc(Nc3cc(Cl)c(F)cc3C(C)(C)O)n2)c(OC)cc1N1CC[C@@H](N(C)C)C1", "test": "treatment-emergent adverse events", "system": "human", "setting": "oral, 50 mg, phase I clinical trial", "measurement": "incidence of blood creatinine increased", "result": "0%"}
{"Compound": "NCCCC[C@@H]1NC(=O)[C@@H](Cc2c[nH]c3ccccc23)NC(=O)[C@H](c2ccccc2)NC(=O)[C@@H]2C[C@@H](OC(=O)NCCN)CN2C(=O)[C@H](Cc2ccccc2)NC(=O)[C@H](Cc2ccc(OCc3ccccc3)cc2)NC1=O", "system": "healthy human volunteers", "setting": "600 µg twice daily", "measurement": "subjects with discoloured faeces", "result": "25%"}
{"Compound": "COc1ccc2nc3cc(Cl)ccc3c(Nc3cc(CN4CCCC4)c(O)c(CN4CCCC4)c3)c2n1", "system": "mouse, blood", "setting": "intraperitoneal, 28 mg/kg", "measurement": "ALT activity", "result": "0.22 U/L"}
{"Compound": "COc1ccnc(C(=O)N[C@H]2COC(=O)[C@H](Cc3ccccc3)[C@@H](OC(=O)C(C)C)[C@H](C)OC2=O)c1OCOC(=O)C(C)C", "test": "maternal toxicity", "system": "rat, female", "setting": "highest dose tested", "measurement": "NOAEL", "result": "1040 mg/kg/day"}
{"Compound": "O=C(c1ccc(F)c(F)c1Nc1ccc(I)cc1F)N1CC(O)([C@@H]2CCCCN2)C1", "system": "patients aged sample A to sample B years", "setting": "oral, dose not given", "measurement": "serious adverse events", "result": "29%"}
{"note": "Excerpt of the above:"}
{"Compound": "CC(=O)c1c(C)c2cnc(Nc3ccc(C4CCN(CCS(C)(=O)=O)CC4)cn3)nc2n(C2CCCC2)c1=O", "system": "beagle dog, male, fasted, blood", "setting": "oral gavage, 15 mg/kg, acidified methylcellulose vehicle", "measurement": "AUC(0-t)", "result": "1120 ng·h/mL"}
